# Published values from different studies.
# Protocols differ between the studies behind these lines. Numbers after ± are the reported error.
Compound,tested on,assay,test system,setting,scale,quantity,value
N=C(N)N[C@@H]1C[C@@H](C(=O)N[C@@H](Cc2ccc(O)cc2)C(N)=O)N(C(=O)CN(CCNC(=O)[C@H](CCCCNC(=O)c2cnccn2)NC(=O)[C@H](CCCCNC(=O)[C@H]2C[C@@H](N)CN2C(=O)CN(CCNC(=O)CN(CCN)C(=O)Cn2cnc3c(=O)[nH]c(N)nc32)C(=O)Cn2cnc3c(=O)[nH]c(N)nc32)NC(=O)[C@H]2C[C@@H](N)CN2C(=O)CN(CCNC(=O)CN(CCN)C(=O)Cn2cnc3c(=O)[nH]c(N)nc32)C(=O)Cn2cnc3c(=O)[nH]c(N)nc32)C(=O)Cn2cnc3c(=O)[nH]c(N)nc32)C1,HIV-1 RRE IIB RNA,"binding, 2-aminopurine fluorescence displacement",,pH 7.0,,Kd,880 ± 20 nM
O=C(O)COc1ccc(Br)cc1C=NNC(=O)Cc1ccccc1 (mixture of isomers),,,"mouse, serum","oral, 100 mg/kg, 48 h",,urea,37.8 ± 2.23 mg/dL
C=CCCCC(C)(NC(=O)[C@H](Cc1c[nH]cn1)NC(=O)[C@@H](N)CC(=O)O)C(=O)N[C@@H](CC(N)=O)C(=O)N1CCC[C@H]1C(=O)N[C@@H](CCC(N)=O)C(=O)N[C@H](C(=O)N[C@@H](CCCNC(=N)N)C(N)=O)[C@@H](C)CC (stereo partly shown),A549,MTT,,"up to 160 µM, 48 h",,cytotoxicity,not toxic
CC(C)C[C@H](NC(=O)[C@@H](NC(=O)[C@H](CCONC(=N)N)NC(=O)OCc1ccccc1)C1CCCCC1)[C@@H](O)CC(=O)NCCc1ccccc1,Plasmodium falciparum,LDH growth,parental resistant,72 h,baseline: 3D7,EC50 fold change,3 fold
